Assay results pooled from the literature.
Every numbered part comes from another study and shows a few of its results, in no order.

Sample 1 — technique: protein binding microarray; form: double-stranded DNA, one strand shown; sample: in vitro; tested at: not given; baseline: not given; reading: higher = stronger binding
Target: Histone acetyltransferase KAT6A, winged helix 1, GST fusion (KAT6A, Homo sapiens, UniProt Q92794, residues 1-85)
Setting: 8-mer, flanks averaged, mean of 2 arrays, mostly near background
Target sequence (chain): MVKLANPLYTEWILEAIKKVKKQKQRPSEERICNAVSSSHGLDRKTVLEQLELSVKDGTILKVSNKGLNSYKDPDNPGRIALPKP
Sequence | E-score
AAACCCTG | -0.183
AACAGCGA | -0.0191
GGAGGACC | 0.0643
ATCGGAAC | -0.131
ACGCCAGA | 0.0173
ACTCTCTC | -0.145
ACAACTTC | -0.248
ACACCATA | -0.078
CTAACGTA | 0.0252
AGATAACG | 0.0234
TAGCAACA | -0.152
CGATAACG | 0.0157
ACGCTTAG | 0.15
CATGCAGG | -0.199
CAGGCAAA | -0.187
GACGCCCC | 0.167
CTAAGAGA | -0.177
CCTATTCA | -0.0807
CCACAGCA | -0.198

Sample 2 — technique: protein-binding microarray; form: double-stranded DNA, one strand shown; sample: in vitro; tested at: not given; reading: higher = stronger binding
Target: Hepatocyte nuclear factor 3-beta, forkhead domain (FOXA2, Homo sapiens, UniProt Q9Y261, residues 142-269)
Setting: k-mer, scored over probes, only values ≥0.25
Residues (chain): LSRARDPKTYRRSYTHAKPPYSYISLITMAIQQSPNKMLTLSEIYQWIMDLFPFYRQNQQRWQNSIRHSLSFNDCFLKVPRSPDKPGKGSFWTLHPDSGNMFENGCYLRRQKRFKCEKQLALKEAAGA
Sequence | E-score
CAACATTG | 0.298
TATTTAAA | 0.317
ATTAAACA | 0.301
ATTATGCA | 0.284
GAGTAACA | 0.266
ATATATCC | 0.368
GATTAATA | 0.282
AACATAAA | 0.29
GAACAAAA | 0.256
AACGGATA | 0.258
AACATTAT | 0.351
AGTGTAAT | 0.268
ATATAGTG | 0.338
TATGCAAA | 0.28

Sample 3 — technique: protein-binding microarray; form: double-stranded DNA, one strand shown; sample: in vitro; tested at: 250 nM; setting: 60-bp whole probe; added: salmon DNA 0.4 mg/ml; baseline: random background probes; reading: higher = stronger binding; constant ends, left off below: GCCTAGCAC … GTCTTGATTCGCTTGACGCTGCTG
Target: Interferon regulatory factor 5, full length, phosphomimetic (IRF5, Homo sapiens, UniProt Q13568-2, residues 1-514, K96S/S451D/S453D/S456D/S462D)
Sequence | log fluorescence
TTCTATATTTGCTTCAGGTTGTGCTAG | 0.742 z-score
TTCGGACTGCTTTTCCTTTAGTGCTAG | 0.533 z-score
GACGGACTGCTTCTCCCGACGTGCTAG | -0.645 z-score
TCATTTTTATCAATCATACTGTGCTAG | 1.47 z-score
CAATATTTGCAACATCCCAATGTGCTA | 0.632 z-score
TTAGAATTGGGGTATCGATTAGTGCTA | 2.65 z-score
GAATGTTTTTCATTGTTTTTGTGCTAG | 1.75 z-score
TTAGGTCTGCTTCTCCTTTAGTGCTAG | -0.122 z-score
TTAGGTTTCCGTTTCGGTTAGTGCTAG | 9.19 z-score
ATAGAACTGGGGTATCGATTAGTGCTA | 2.45 z-score
TCATTTTCCTCTGTCATACTGTGCTAG | 1.43 z-score
CAGCTTCTAATATTCATTTTGTGCTAG | 0.712 z-score

Sample 4 — technique: universal PBM; form: double-stranded DNA, one strand shown; sample: in vitro; tested at: 600 nM; reading: higher = stronger binding
Target: Sal-like protein 4, full length isoform A (SALL4, Homo sapiens, UniProt Q9UJQ4, residues 1-1053)
UniProt Q9UJQ4, sequence (whole entry, looked up): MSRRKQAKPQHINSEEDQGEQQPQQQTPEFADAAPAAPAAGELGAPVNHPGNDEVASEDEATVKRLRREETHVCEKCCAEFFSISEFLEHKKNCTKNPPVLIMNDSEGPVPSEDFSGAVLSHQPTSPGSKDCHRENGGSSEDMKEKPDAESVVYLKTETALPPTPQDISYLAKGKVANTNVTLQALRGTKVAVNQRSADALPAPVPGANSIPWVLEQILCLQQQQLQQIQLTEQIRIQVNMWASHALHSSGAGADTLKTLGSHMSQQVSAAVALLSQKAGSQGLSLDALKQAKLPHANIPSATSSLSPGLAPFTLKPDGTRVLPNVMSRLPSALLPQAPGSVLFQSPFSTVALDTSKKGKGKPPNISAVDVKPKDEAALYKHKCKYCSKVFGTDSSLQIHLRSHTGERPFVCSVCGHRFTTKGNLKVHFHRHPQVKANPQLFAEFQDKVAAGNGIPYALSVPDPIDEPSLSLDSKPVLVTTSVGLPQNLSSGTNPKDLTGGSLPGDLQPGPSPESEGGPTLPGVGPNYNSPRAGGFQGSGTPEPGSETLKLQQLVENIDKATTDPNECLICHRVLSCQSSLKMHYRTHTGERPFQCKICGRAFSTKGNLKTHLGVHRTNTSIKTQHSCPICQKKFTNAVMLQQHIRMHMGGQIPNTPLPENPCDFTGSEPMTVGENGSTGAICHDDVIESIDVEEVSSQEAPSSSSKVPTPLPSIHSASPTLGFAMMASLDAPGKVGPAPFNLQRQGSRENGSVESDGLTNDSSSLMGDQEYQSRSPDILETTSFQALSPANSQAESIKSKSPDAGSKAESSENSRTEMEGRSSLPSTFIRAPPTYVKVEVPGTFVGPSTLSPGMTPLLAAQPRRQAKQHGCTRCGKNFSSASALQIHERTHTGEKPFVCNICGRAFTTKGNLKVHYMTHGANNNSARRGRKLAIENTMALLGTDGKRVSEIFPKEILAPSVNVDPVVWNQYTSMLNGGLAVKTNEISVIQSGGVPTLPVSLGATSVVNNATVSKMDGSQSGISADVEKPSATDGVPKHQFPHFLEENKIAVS
Setting: 8-mer, flanks averaged, mean of replicates
Sequence | E-score
CTACTGCA | 0.0278
CTACAACA | 0.0756
AACAAGGC | -0.0885
AGTACGTA | 0.169
TGCAGGAA | 0.00864
AAACAATA | 0.353
ACGGAACG | -0.0674
GAAATTAA | 0.378
CGTCGGTC | -0.178
AGAACTGG | -0.152
GAACAACA | 0.00334
GCCGATAA | -0.0597
CGGCGTCA | -0.227
CGCAGTAC | -0.218
CCCAGGGG | -0.408
CCGAAATC | 0.0483
CACTCCCC | -0.194
CTTACCTA | 0.0169
AAAGAGCC | -0.241
AGCACCTA | -0.0916
CATACTTA | 0.268
CCATGACG | -0.164

Sample 5 — technique: RNA Bind-n-Seq; form: RNA; sample: in vitro; tested at: 200 nM; setting: whole 134-nt RNA, ends assumed; added: 150 mM LiCl; baseline: input library; reading: higher = stronger binding; library: 7-deaza-guanosine replaces G
Target: Ras GTPase-activating protein-binding protein 1, full length (G3BP1, Homo sapiens, UniProt Q13283)
UniProt Q13283, sequence (whole entry, looked up): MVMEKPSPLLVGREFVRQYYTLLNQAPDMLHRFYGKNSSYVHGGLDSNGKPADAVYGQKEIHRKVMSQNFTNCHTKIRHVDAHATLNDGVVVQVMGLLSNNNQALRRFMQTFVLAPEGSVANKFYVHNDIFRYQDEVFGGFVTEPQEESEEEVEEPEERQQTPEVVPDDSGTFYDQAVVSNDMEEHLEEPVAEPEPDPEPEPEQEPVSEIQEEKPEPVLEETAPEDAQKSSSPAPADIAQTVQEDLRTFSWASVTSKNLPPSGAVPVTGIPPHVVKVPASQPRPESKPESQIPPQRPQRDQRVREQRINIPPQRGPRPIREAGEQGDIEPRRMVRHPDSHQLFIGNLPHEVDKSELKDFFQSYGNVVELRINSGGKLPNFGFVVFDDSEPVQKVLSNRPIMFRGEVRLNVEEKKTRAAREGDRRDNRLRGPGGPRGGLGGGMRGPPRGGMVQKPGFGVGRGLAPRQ
Sequence | log2 enrichment
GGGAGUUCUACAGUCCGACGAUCCUCAAGUCCUGUGCUACACAUCGUAUGUACCGAAUCGGUUUUUUUGGAGGUGGAAAGUAUUAUGUUACGCCGUUCGGAUCUGCACUUCCAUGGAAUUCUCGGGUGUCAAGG | 0.229
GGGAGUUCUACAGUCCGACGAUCGUCCUGUGCUACACAUCGUAUGUACCGAAUCGGGUUUGGGAAAAAGGGAAAAAAAGGGAAAGUAUUAUGUUACGCCGUUCGGAUCUGCACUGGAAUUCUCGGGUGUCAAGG | -0.0716
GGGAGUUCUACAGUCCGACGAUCAGUCCUGUGCUACACAUCGUAUGUACCGAAUCGGGAAAAAAAGGGUUUUUGGGUGGGAAAGUAUUAUGUUACGCCGUUCGGAUCUGCACUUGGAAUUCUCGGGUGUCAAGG | -1.41
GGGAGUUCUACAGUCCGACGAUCCACAGACAACACGCACCCACACAGACACAGAGGGAAGGGGUUGGGAUGGGGACGGGGUGCACAGCAGGGCGGGGUAGGACCCCAGCCCCUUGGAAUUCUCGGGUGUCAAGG | -0.511
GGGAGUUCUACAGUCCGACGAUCUGUGCUACACAUCGUAUGUACCGAAUCGGGGAAAAAAAGGGGAAAAAAAGGGAAAAAAAGGGAAAGUAUUAUGUUACGCCGUUCGGAUCUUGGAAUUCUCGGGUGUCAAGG | 0.39
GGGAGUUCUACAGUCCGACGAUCGUCCUGUGCUACACAUCGUAUGUACCGAAUCGGGUUUUUGGGGUUUUUGGGUUUUUGGGAAAGUAUUAUGUUACGCCGUUCGGAUCUGCAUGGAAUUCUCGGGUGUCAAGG | -0.379
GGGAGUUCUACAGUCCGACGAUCCCUGUGCUACACAUCGUAUGUACCGAAUCGGGUUUUUUGGGUUUUUUGGGGUUUUUUGGGAAAGUAUUAUGUUACGCCGUUCGGAUCUGCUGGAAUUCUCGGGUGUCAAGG | 0.37
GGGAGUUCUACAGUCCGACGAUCCACCGACAACACGCACCCACACAGACACAGAGGGAAGGGGUUGGGAUGGGGACAGGGUGCACAGCAGGGCGGGGUAGGACCCCAGCCCCUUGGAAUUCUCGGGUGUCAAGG | 0.0554
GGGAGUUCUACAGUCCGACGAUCUGGGAGGUGGAUUUUGUUUAUUUUUUUAGCUCAUUUCCAGGGGUGGGAAUUUUUUUUUAAUAUGUGUCAUGAAUUAAGUUGUUUUUGAAAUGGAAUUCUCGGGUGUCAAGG | -0.0881
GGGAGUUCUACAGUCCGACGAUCUGGCCCUGGUGGCGUGCGGGGAGGAAGAGGUGGCCUCAUGGAUCGUGGUGGUCCCGGUGGAAUGUUCAGAGGUGGCCGUGGUGGAGACAGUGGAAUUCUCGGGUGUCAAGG | 0.502
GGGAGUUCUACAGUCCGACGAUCGCAGGAAGUAAAAACAAAUGGAAAUGCUUCGGAUAGUGGCAGGGGUGGGGGAAACUAAGGAAAGGGUGGGAUGGGAGUGGGUAAAGAGUUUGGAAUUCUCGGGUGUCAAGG | 0.0351

Sample 6 — technique: RNA Bind-n-Seq; form: RNA; sample: in vitro; tested at: not given; baseline: input RNA pool; reading: higher = stronger binding
Target: RING finger protein unkempt homolog, zinc fingers 1-6, GST-SBP tag (UNK, Homo sapiens, UniProt Q9C0B0, residues 30-357)
Setting: RNA with constant flanks, human and mouse sites, ends assumed
Construct (chain): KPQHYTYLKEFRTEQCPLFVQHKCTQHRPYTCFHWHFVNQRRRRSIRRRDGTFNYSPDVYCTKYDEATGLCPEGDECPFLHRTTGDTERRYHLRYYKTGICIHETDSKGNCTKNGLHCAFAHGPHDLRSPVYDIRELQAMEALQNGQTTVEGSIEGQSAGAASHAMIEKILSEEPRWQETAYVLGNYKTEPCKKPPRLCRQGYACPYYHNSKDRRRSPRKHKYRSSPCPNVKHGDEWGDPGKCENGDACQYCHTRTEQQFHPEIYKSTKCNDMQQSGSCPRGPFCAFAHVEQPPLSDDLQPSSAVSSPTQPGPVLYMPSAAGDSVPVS
Sequence | bound/input enrichment [ratio]
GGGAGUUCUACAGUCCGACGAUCAAUGACUAUGAGAAUGGUUUAGACCUUCUGUUUCACCCAGUUACUGCAAAGCCUGCAUCGUGGCAACAUUCAAAGAUAAUUGAAGCUUUUAUGAGUCAGGGAGAGCACAAACAGGCUCUCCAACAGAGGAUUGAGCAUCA | 0.209
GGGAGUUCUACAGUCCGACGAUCCAAGUGCUGGCAGCUUUGCAGGAACGUCUUGACAACGUCUCUCACACUCCUUCUAGUUACAUAGAAACUUUACCUAAAGCUGUCAAAAGAAGAAUUAAUGCCCUGAAGCAGCUCCAGGUGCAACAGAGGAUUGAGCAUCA | 1.18
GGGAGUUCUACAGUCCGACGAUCUUCCAUUUAGCUUACAUGUAAAUGUAAUUAUUUAAAACACACACACUGCUCUGCGUUGUAUAGUUUUUCCUUUUUUGUAUGUAACAGAACACAUUUCAGAUUGUAUUUAAUUUAAAUAUUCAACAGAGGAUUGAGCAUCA | 15.1
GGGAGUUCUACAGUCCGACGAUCACCAUGAAUGAUAUUGAUGCUUUUGAAUUUCAUGAAGCUUUCUCGGGUCAGAUUUUGGCAAAUUUUAAAGCCAUGGAUUCUGAUUGGUUUGCAGAAAACUACAUGGGUAGAAAAACCAAGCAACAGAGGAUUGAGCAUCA | 0.174
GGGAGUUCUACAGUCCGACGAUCAAUGUUAAACUUAAAGCUCAGACAUAUGAACUCCAGGAAAGUAAUGUUCAAUUGAAAUUGACCAUUGUGAAUACAGUGGGAUUUGGUGACCAAAUAAAUAAAGAAGAGAGCUACCAACCACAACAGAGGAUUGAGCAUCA | 0.082
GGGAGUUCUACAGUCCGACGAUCAUUUUUGAAUCAACAUCUUUUCCUUCUGUCCCUCCCUUUCUCCAUCUUUUGGUCACUACCCUCCAACUCUAGGAACAGGGGUGUAGAGGAGAAGCCCUAGGCUUGAGAUUUCAUCUGCUCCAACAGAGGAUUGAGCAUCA | 0.242
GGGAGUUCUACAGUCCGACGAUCUGUGUGGCCAGAGCUUUCACAGGAGGAAAGCGGGCUGCUGAAUUUAGUCACUGAUCUCUAUUAGCUGUGGCCUAAGGCUAUGCUGAGGUUUAUAUCCCAUUUGUACUGUUGCAGCUCAAACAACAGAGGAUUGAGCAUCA | 0.321
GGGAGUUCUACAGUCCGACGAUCCCAUGACCCGGUUAACACACGAGUAAACAGGCCUAGAGCUUGUCUGCUGUUUGACCUCUUUUAAGACCCGGCUGUGCUGCAUCUACAAAAUGAAGAUGACAGAGCUAGCCGAGGUCUUCACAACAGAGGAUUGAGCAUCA | 0.117
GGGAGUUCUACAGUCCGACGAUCCAAGGAGCUCGAAGGAACAGUUCCUAGACGCAUCAGUUCCUACGUGAAAAGGAUUGUUUUGGUUUUUGUUUUGUUUUUUUGUUUGUUUUUUCACGUGAGAGCAAGACGGAGGAAAUAAUUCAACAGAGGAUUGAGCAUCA | 0.171
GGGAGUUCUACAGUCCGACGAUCAGCAGCACGAUCUCUGGGGGUUAUGCAGAGUAUGCUCUUGCAGCAGACCACACUGUUUACAAACUACCUGAAAAACUGGACUUUAAACAAGGAGCUGCCAUCGGCAUUCCAUAUUUUACUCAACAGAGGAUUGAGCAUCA | 0.152
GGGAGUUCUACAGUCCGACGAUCGGCUGGAGAAGGGCCCUUCUCAGAAACCUAUACCUUCAGCACAACCAAAAGUGUCCCCCCCACCAUCAAAGCACCUCGAGUAACACAGUUAGAAGGAAAUUCAUGUGAAAUUUUAUGGGACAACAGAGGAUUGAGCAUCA | 0.971

A few entries again (sample 1):
Sequence | E-score
ACAACTTC | -0.248
CCACAGCA | -0.198
GGAGGACC | 0.0643
ACGCTTAG | 0.15
CTAACGTA | 0.0252
CCTATTCA | -0.0807
CAGGCAAA | -0.187
AGATAACG | 0.0234
TAGCAACA | -0.152
AACAGCGA | -0.0191
